Measured values pooled from the literature.
Each line is one published result; not all experiments were run side by side.
CSK: Tyrosine-protein kinase CSK (CSK, Homo sapiens, UniProt P41240)
UniProt P41240, sequence (whole entry, looked up): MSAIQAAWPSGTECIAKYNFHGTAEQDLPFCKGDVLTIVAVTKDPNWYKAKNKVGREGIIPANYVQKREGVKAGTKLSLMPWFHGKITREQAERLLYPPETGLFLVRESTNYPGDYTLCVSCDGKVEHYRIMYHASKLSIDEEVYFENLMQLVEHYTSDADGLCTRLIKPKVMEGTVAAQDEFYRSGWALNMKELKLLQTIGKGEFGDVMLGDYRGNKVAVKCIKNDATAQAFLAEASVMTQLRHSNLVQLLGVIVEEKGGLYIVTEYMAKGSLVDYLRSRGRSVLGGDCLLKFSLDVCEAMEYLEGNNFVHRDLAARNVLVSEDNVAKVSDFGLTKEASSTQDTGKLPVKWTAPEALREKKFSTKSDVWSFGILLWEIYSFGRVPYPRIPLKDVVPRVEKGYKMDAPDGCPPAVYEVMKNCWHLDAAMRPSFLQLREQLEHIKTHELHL
PPO3: PPO3 (Agaricus bisporus, UniProt C7FF04)
UniProt C7FF04, sequence (whole entry, looked up): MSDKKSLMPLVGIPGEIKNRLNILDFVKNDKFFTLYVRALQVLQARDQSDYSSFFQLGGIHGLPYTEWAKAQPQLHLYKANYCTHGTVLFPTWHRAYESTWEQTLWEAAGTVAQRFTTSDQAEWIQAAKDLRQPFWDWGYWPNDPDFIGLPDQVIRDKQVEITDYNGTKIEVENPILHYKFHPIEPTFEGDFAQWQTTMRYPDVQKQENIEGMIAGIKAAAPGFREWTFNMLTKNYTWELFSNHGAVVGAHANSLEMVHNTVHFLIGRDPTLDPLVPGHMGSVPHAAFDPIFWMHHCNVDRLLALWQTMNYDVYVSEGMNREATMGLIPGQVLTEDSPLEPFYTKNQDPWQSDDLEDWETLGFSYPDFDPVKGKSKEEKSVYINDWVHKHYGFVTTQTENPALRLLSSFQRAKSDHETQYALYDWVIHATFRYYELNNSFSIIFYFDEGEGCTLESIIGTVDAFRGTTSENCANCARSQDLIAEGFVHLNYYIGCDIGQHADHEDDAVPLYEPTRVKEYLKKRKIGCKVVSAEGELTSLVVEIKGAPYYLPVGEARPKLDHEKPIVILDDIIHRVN
UniProt P14780, sequence (whole entry, looked up): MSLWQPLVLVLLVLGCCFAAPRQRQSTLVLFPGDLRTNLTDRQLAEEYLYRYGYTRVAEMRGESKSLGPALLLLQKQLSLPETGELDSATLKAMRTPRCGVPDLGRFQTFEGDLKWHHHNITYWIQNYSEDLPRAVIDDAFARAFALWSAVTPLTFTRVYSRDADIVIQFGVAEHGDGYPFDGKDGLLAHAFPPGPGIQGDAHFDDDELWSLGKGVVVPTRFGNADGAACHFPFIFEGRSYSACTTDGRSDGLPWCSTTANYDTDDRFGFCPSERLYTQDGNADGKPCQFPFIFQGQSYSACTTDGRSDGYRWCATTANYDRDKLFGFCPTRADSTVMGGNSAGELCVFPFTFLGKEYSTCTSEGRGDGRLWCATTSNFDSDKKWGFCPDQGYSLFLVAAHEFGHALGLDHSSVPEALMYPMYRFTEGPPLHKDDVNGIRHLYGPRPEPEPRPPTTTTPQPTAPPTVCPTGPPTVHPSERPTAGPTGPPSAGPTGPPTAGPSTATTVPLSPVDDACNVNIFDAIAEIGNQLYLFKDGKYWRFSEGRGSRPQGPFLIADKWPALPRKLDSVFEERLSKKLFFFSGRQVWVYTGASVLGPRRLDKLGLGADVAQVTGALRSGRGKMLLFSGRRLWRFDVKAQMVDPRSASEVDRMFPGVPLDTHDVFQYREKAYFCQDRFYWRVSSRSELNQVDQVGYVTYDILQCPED
UniProt Q9UH17, sequence (whole entry, looked up): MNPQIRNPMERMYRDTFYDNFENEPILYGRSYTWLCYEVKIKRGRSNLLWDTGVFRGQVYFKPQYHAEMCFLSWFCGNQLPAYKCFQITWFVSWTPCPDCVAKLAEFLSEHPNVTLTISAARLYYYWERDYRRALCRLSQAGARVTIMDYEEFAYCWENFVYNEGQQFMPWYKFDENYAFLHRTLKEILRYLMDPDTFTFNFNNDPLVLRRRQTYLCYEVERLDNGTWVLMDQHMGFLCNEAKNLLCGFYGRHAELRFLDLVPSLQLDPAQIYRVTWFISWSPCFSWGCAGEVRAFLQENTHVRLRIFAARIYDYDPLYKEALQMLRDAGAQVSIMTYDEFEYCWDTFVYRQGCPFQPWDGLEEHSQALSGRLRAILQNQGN
UniProt P07333, sequence (whole entry, looked up): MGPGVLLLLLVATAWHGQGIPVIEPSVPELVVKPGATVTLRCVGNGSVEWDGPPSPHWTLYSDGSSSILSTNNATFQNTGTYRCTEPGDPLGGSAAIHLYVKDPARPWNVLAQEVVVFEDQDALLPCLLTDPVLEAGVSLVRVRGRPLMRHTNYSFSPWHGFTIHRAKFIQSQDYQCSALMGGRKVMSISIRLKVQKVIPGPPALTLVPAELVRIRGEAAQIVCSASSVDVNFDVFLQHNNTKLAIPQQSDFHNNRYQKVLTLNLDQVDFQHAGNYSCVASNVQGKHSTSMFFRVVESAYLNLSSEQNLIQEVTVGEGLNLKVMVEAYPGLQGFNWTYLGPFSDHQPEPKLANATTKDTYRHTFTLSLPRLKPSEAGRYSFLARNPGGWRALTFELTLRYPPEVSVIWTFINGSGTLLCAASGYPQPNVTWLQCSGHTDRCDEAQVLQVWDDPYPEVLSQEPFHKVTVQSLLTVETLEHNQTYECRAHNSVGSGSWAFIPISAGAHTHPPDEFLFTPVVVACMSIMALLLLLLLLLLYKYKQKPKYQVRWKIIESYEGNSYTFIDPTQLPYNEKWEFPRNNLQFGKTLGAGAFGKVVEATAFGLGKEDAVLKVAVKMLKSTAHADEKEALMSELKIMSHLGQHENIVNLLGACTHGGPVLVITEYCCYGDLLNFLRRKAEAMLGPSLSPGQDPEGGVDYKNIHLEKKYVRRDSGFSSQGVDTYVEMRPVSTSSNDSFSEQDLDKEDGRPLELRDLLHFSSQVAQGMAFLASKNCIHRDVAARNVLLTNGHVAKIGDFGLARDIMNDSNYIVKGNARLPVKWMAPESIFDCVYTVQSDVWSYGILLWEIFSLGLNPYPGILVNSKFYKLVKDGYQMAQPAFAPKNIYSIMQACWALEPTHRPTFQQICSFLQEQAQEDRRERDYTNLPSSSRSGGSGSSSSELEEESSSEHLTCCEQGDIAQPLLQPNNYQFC
UniProt B2RXH2, sequence (whole entry, looked up): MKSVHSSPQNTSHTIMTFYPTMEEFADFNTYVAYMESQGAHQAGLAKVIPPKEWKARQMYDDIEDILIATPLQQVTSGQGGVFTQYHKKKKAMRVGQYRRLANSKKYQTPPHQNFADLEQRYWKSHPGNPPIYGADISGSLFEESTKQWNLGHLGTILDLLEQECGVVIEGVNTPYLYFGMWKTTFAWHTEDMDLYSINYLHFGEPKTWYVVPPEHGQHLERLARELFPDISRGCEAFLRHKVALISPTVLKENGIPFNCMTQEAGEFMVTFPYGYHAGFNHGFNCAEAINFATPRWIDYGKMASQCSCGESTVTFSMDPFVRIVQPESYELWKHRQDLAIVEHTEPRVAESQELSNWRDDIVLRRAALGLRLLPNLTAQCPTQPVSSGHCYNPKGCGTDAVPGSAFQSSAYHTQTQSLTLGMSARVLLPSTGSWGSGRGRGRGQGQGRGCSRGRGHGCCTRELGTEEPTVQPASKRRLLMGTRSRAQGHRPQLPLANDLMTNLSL

SMILES	target	test	test system	conditions	how to read	remaining activity
O=C(O)c1ccnc(C(=O)O)c1Br	Lysine-specific demethylase 4E (KDM4E, Homo sapiens, UniProt B2RXH2)	inhibitor, FDH-coupled formaldehyde		200 µM		67%
N=C(N)NCCC[C@@H]1NC(=O)[C@H](Cc2c[nH]c3ccccc23)NC(=O)[C@H](CCCNC(=N)N)NC(=O)[C@H](Cc2c[nH]c3ccccc23)NC(=O)[C@H](CCCNC(=N)N)NC(=O)[C@H](Cc2c[nH]c3ccccc23)NC(=O)[C@H](CCCNC(=N)N)NC(=O)[C@H](Cc2c[nH]c3ccccc23)NC(=O)[C@H](CCCNC(=N)N)NC(=O)[C@H](Cc2c[nH]c3ccccc23)NC(=O)[C@H](CCCNC(=N)N)NC(=O)[C@H](Cc2c[nH]c3ccccc23)NC(=O)[C@H](CCCNC(=N)N)NC(=O)[C@H](Cc2c[nH]c3ccccc23)NC(=O)[C@H](CCCNC(=N)N)NC(=O)[C@H](Cc2c[nH]c3ccccc23)NC(=O)[C@H](CCCNC(=N)N)NC(=O)[C@H](Cc2c[nH]c3ccccc23)NC1=O	CSK	kinase activity, Reaction Biology radiometric		concentration not given, added: ATP 200 µM	baseline: DMSO	7.7%
CC1(C)CCN(Cc2ccc(C(=O)NC[C@]3(O)CCCN(c4cc(NCc5ccccc5)ncn4)C3)c(O)c2)CC1	Macrophage colony-stimulating factor 1 receptor (CSF1R, Homo sapiens, UniProt P07333)	kinase activity, radiometric		10 µM, added: 10 µM ATP		102%
CC(=O)N[C@@H](Cc1c[nH]c2ccccc12)C(=O)N[C@@H](Cc1c[nH]c2ccccc12)C(=O)N[C@@H](Cc1c[nH]c2ccccc12)C(=O)N[C@@H](Cc1c[nH]c2ccccc12)C(=O)N[C@@H](Cc1c[nH]c2ccccc12)C(=O)N[C@@H](Cc1c[nH]c2ccccc12)C(=O)N[C@@H](Cc1c[nH]c2ccccc12)C(=O)NCCCC[C@@H]1NC(=O)[C@H](CCCNC(=N)N)NC(=O)[C@H](CCCNC(=N)N)NC(=O)[C@H](CCCNC(=N)N)NC(=O)[C@H](CCCNC(=N)N)NC(=O)[C@H](CCCNC(=N)N)NC1=O	Proto-oncogene tyrosine-protein kinase Src (SRC, Homo sapiens, UniProt P12931)	enzyme activity, inhibitor, radiometric		5 µM		95.1%
O=C(CCCC[C@H]1CCSS1)NCCC(=O)N[C@@H](Cc1cnc[nH]1)C(=O)O (mixture of isomers)	Transient receptor potential cation channel subfamily A member 1 (Trpa1, Mus musculus, UniProt Q8BLA8)	ion current, inhibitor, patch clamp	CHO	30 µM		7.7%
COC(=O)CN1CCCc2cc3cc(C(=O)NC(Cc4ccc(C)cc4)C(=O)NCC=CS(=O)(=O)c4ccccc4)c(=O)oc3cc21 (stereo not drawn)	Cathepsin B (CTSB, Homo sapiens, UniProt P07858)	enzyme activity, inhibitor		5 µM, 60 min, added: Z-Arg-Arg-pNA	baseline: uninhibited control	53%
N=C(N)NCCC[C@H](NC(=O)[C@@H](N)CS)C(=O)N[C@@H](CC(N)=O)C(=O)N[C@@H](CC(N)=O)C(=O)O	PPO3	enzyme activity, inhibitor		50 µM		72.9%
CC(=O)N[C@@H](Cc1c[nH]c2ccccc12)C(=O)N[C@@H](Cc1c[nH]c2ccccc12)C(=O)N[C@@H](Cc1c[nH]c2ccccc12)C(=O)N[C@@H](Cc1c[nH]c2ccccc12)C(=O)N[C@@H](Cc1c[nH]c2ccccc12)C(=O)N[C@@H](Cc1c[nH]c2ccccc12)C(=O)NCCCC[C@@H]1NC(=O)[C@H](CCCNC(=N)N)NC(=O)[C@H](CCCNC(=N)N)NC(=O)[C@H](CCCNC(=N)N)NC(=O)[C@H](CCCNC(=N)N)NC(=O)[C@H](CCCNC(=N)N)NC(=O)[C@H](CCCNC(=N)N)NC1=O	CSK	kinase activity, Reaction Biology radiometric		concentration not given, added: ATP 200 µM	baseline: DMSO	91.8%
CC(C)C[C@H](NC(=O)[C@H](CCC(=O)O)NC(=O)[C@@H](N)CS)C(=O)N[C@@H](CC(N)=O)C(=O)O	PPO3	enzyme activity, inhibitor		25 µM		77.6%
CN(CC(=O)c1ccc2[nH]c(=O)[nH]c2c1)Cc1ccco1	DNA dC->dU-editing enzyme APOBEC-3B (Homo sapiens, UniProt Q9UH17)	deaminase activity, inhibitor, alkaline cleavage	purified, expressed in 293T	700 µM		5%
NC(=O)C[C@H](NC(=O)[C@H](CC(N)=O)NC(=O)[C@H](CCC(=O)O)NC(=O)[C@@H](N)CS)C(=O)O	PPO3	enzyme activity, inhibitor		100 µM		63.3%
O=C(Cc1c(-c2ccccc2)n[nH]c1-c1ccccc1)NO	Matrix metalloproteinase-9 (MMP9, Homo sapiens, UniProt P14780)	enzyme activity, inhibitor		10 µM		81%

For quick reference, copied from above:
SMILES	target	test	test system	conditions	how to read	remaining activity
O=C(CCCC[C@H]1CCSS1)NCCC(=O)N[C@@H](Cc1cnc[nH]1)C(=O)O (mixture of isomers)	Transient receptor potential cation channel subfamily A member 1 (Trpa1, Mus musculus, UniProt Q8BLA8)	ion current, inhibitor, patch clamp	CHO	30 µM		7.7%
COC(=O)CN1CCCc2cc3cc(C(=O)NC(Cc4ccc(C)cc4)C(=O)NCC=CS(=O)(=O)c4ccccc4)c(=O)oc3cc21 (stereo not drawn)	Cathepsin B (CTSB, Homo sapiens, UniProt P07858)	enzyme activity, inhibitor		5 µM, 60 min, added: Z-Arg-Arg-pNA	baseline: uninhibited control	53%
